Assay results of several laboratories.
Compare with care: the assays were run in different laboratories. ± marks the error that the study gave.
Organism: Escherichia coli

Molecule | test | test system | conditions | how to read | quantity | value
CC[C@H]1OC(=O)[C@H](C)[C@@H](O[C@H]2C[C@@](C)(OC)[C@@H](O)[C@H](C)O2)[C@H](C)[C@@H](O[C@@H]2O[C@H](C)C[C@H](N(C)C)[C@H]2O)[C@](C)(OC)C[C@@H](C)C(=O)[C@H](C)[C@@H](O)[C@]1(C)O | in vitro translation, SNAPf fluorescence | E. coli MRE600 70S ribosomes | 2 h, 37 °C | – | IC50 | 14 ± 14 nM
O=CN(O)CCCP(=O)(O)O | – | BL21(DE3) | – | reference: E. coli growth over P. falciparum IC50 | selectivity ratio | 14 fold
TRSSRAGLQWPVGRVHRLLRK-NH2 (C-amide) | bacterial growth, broth microdilution | peptide, NCTC 9001, Mueller-Hinton broth | overnight, 37 °C | – | MIC50 | > 25.9 µg/mL
CC(=O)N(O)CCCCCNC(=O)CCC(=O)N(O)CCCCCNC(=O)CCC(=O)N(O)CCCCCNC(=O)CCC(=O)N1CCN(c2cc3c(cc2F)c(=O)c(C(=O)O)cn3C2CC2)CC1 | – | K12 | 18 h, 37 °C, iron-deficient medium with 2,2'-bipyridine, added: 100-fold excess Fe-siderophore complex | – | MIC90 | 1.9 µM
CCN1CCN(C(=O)N[C@@H](C(=O)N[C@@H]2C(=O)N3[C@@H]2SC(C)(C)[C@@H]3C(=O)O)c2ccccc2)C(=O)C1=O | checkerboard | ATCC 25922 | added: magainin II | – | FIC index | 0.312
COc1cc(C=Nc2cccc(O)c2)ccc1O | microbial growth, disc diffusion | – | 2000 µg/mL, 24 h | – | inhibition zone | ≤ 16.6 mm
CC[C@H]1OC(=O)[C@H](C)[C@@H](O[C@H]2C[C@@](C)(OC)[C@@H](O)[C@H](C)O2)[C@H](C)[C@@H](O[C@@H]2O[C@H](C)C[C@H](N(C)C)[C@H]2O)[C@](C)(OC)C[C@@H](C)C(=O)[C@H](C)[C@@H](O)[C@]1(C)O | checkerboard | ATCC 25922 | added: magainin II | – | FIC index | 1.5
KFFKFFKFFK (peptide-PNA conjugate) | – | peptide, UPEC 536 | 2.5 µM, 60 to 120 min | – | reduction in viable count | 1 to 2 log cfu/mL
CC[C@H](C)[C@H](NC(=O)[C@H](C)NC(=O)[C@@H]1CCCN1C(=O)[C@H](CCCCN)NC(=O)[C@@H](NC(=O)[C@H](Cc1c[nH]c2ccccc12)NC(=O)CNC(=O)[C@H](CCC(N)=O)NC(=O)[C@@H](NC(=O)[C@H](CC(N)=O)NC(=O)[C@H](CC(=O)O)NC(=O)[C@H](CCCNC(=N)N)NC(=O)[C@H](CC(C)C)NC(=O)[C@@H](NC(=O)[C@@H](N)CCCCN)C(C)C)[C@@H](C)CC)[C@@H](C)O)C(=O)N[C@@H](CCCNC(=N)N)C(=O)N[C@@H](CCCNC(=N)N)C(=O)N[C@@H](CC(C)C)C(=O)N[C@@H](C)C(=O)N[C@@H](CCCNC(=N)N)C(=O)N[C@@H](CCCNC(=N)N)C(=O)NCC(=O)O | membrane permeabilization, propidium iodide uptake | – | 2 µM, 5 min, pH 7.4 | reference: before addition | fluorescence ratio | 1.13 ± 0.08
CC[C@H]1OC(=O)[C@H](C)[C@@H](O[C@H]2C[C@@](C)(OC)[C@@H](O)[C@H](C)O2)[C@H](C)[C@@H](O[C@@H]2O[C@H](C)C[C@H](N(C)C)[C@H]2O)[C@](C)(O)C[C@@H](C)C(=O)[C@H](C)[C@@H](O)[C@]1(C)O | in vitro translation, SNAPf fluorescence | E. coli MRE600 70S ribosomes | 2 h, 37 °C | – | IC50 | 42 ± 10 nM
CC[C@H]1OC(=O)[C@H](C)[C@@H](O[C@H]2C[C@@](C)(OC)[C@@H](O)[C@H](C)O2)[C@H](C)[C@@H](O[C@@H]2O[C@H](C)C[C@H](N(C)C)[C@H]2O)[C@](C)(O)C[C@@H](C)C(=O)[C@H](C)[C@@H](O)[C@]1(C)O | – | hospitalized pneumonia patients, clinical isolates | Fine score 70 or more | – | susceptible isolates | 0%
C[C@H]1c2cccc(O)c2C(=O)C2=C(O)[C@]3(O)C(=O)C(C(N)=O)=C(O)[C@@H](N(C)C)[C@@H]3[C@@H](O)[C@@H]21 | checkerboard | ATCC 25922 | added: magainin II | – | FIC index | 1.5
COc1cc(C=Nc2ccc(Cl)cc2Cl)ccc1O | microbial growth, disc diffusion | – | 2000 µg/mL, 24 h | – | inhibition zone | ≤ 16.6 mm
GWGSFFKKAAHVGKHVGKAALTHYL-NH2 (C-amide) | bacterial growth, broth microdilution | peptide, TOP10, Mueller-Hinton broth | overnight, 37 °C | – | MIC50 | 0.18 ± 0.02 µg/mL
COc1ccc(C(=O)NN=Cc2ccc(O)c3ncccc23)cc1 | bacterial growth | NEB 5-alpha, cation-supplemented liquid medium | – | – | EC50 | > 100000 nM
GIGKFLHSAKKFGKAFVGEIMNS-NH2 (C-amide) | bacterial growth, broth microdilution | peptide, TOP10, Mueller-Hinton broth | overnight, 37 °C | – | MIC50 | 1.79 ± 0.13 µg/mL
CC[C@H](C)[C@H](NC(=O)CNC(=O)[C@H](CCC(=O)O)NC(=O)[C@H](CO)NC(=O)[C@@H](NC(=O)[C@H](CCCNC(=N)N)NC(=O)[C@H](CCCCN)NC(=O)[C@H](CCCCN)NC(=O)[C@H](C)NC(=O)[C@H](CO)NC(=O)[C@H](CC(N)=O)NC(=O)[C@H](CCC(=O)O)NC(=O)[C@H](CC(C)C)NC(=O)[C@H](CCCCN)NC(=O)[C@H](CCCCN)NC(=O)[C@H](C)NC(=O)[C@@H](NC(=O)[C@H](CCCCN)NC(=O)[C@H](CO)NC(=O)[C@H](CC(C)C)NC(=O)[C@H](Cc1c[nH]c2ccccc12)NC(=O)[C@@H](N)CO)[C@@H](C)O)[C@@H](C)CC)C(=O)N[C@@H](C)C(=O)N[C@H](C(=O)N[C@@H](C)C(=O)N[C@H](C(=O)N[C@@H](CCC(N)=O)C(=O)NCC(=O)NCC(=O)N1CCC[C@H]1C(=O)N[C@@H](CCCNC(=N)N)C(=O)O)[C@@H](C)CC)[C@@H](C)CC | broth microdilution | – | 18 h, 30 clinical isolates | – | MIC90 | 2 µg/mL
